Measured values collected from several papers.
Parts stem from different laboratories: compare values within a part only. Positions count from the first letter of the parent shown.

Series 1 — Substitution: C72V; method: DHFR PCA, deep sequencing; sample: yeast; reference: wild-type fitted maximum; direction: higher = stronger binding
Target: ABI1, truncated, D143A, DHFR fusion (Arabidopsis thaliana)
Setting: methotrexate growth selection, single substitutions
Starting sequence: PYL1, truncated, DHFR fusion (Arabidopsis thaliana); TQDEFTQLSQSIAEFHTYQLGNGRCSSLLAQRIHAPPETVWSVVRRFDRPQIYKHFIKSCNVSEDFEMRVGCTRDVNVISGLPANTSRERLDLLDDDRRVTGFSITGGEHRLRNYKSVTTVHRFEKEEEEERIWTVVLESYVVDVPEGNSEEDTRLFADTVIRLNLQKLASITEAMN
The “relative binding score” was 38.9% (with: (+)-ABA 0.0091 µM).
For with: (+)-ABA 710 µM: “relative binding score” read 102%.
The “relative binding score” was 98.6% (with: (+)-ABA 2500 µM).
For with: (+)-ABA 17 µM: “relative binding score” read 86.4%.
It gave 51.3% for “relative binding score” (with: (+)-ABA 0.39 µM).
The “relative binding score” was 102% (with: (+)-ABA 200 µM).

Series 2 — target: OGT, full length, His-tagged (human); method: phage display, sequencing; sample: in vitro; tested at: 1 µg OGT; reference: input library; direction: higher = stronger binding; starting sequence: peptide; GDFPVMFMPKYSIIY
Setting: single substitutions, 15-mer displayed peptide, unchanged parent 5.27
`GDFPVMFMPKYSIIQ [Y15Q]` gave a fold enrichment of 0.901 fold.
`GDFPVMFEPKYSIIY [M8E]` gave a fold enrichment of 0.213 fold.
`GSFPVMFMPKYSIIY [D2S]` has a fold enrichment of 4.65 fold.
With `GDFPVDFMPKYSIIY [M6D]` the fold enrichment was 6.23 fold.
With `GDFPVMFYPKYSIIY [M8Y]` the fold enrichment was 2.29 fold.
`TDFPVMFMPKYSIIY [G1T]` gave a fold enrichment of 5.39 fold.
The fold enrichment of `GDFPVMFMPKYYIIY [S12Y]` is reported as 6.1 fold.
For `GDFPRMFMPKYSIIY [V5R]`, the fold enrichment was 1.76 fold.

Series 3 — method: RNA Bind-n-Seq; form: RNA; sample: in vitro; tested at: 365 nM; reference: no-protein control; direction: higher = stronger binding
Target: RNA binding protein fox-1 homolog 2, RRM domain, GST-SBP tag (RBFOX2, Homo sapiens, UniProt O43251-10, residues 100-194)
Setting: natural RNA segment, single round, ends assumed
Shared flanks, not repeated: GGGAGUUCUACAGUCCGACGAUC … UGGAAUUCUCGGGUGCCAA
Under “RBNS enrichment (R)”, `AUGUUCCCAAGGCCCCACUUUCAAGAAUCAGACAGCAGGAAGCCAUAGAUGCUGGCUGGGUUCCAGGUUAUGGGGAGAAGAAAUACAGUCAAUAAAAGGUUUUUGUAUAA` is recorded as 0.617.
For `CCGAGUGACGGUUUCCCUUGCACUAGGCUGAACCUAUAGUAUAGAAAUAUUAUCUAUUUUAUUACCUUGAAUAUUUAAUAUUUUUCACUGGGAGGUUUGAAGCUUACAAA`, “RBNS enrichment (R)” read 0.43.
For `GGCCCAGCUGCUGUUUAUUUAUGCUUUUUGGUCUGUUUGUUUGAUCUUUUGCUUUUUUAAAAUUGUUUUUUGCAGUUAAGAGGCAGCUCAUUUGUCCAAAUUUCUGGGCU`, “RBNS enrichment (R)” read 1.62.
`UUUAUUUGGUUUUAUCUGAGAUAACUUAUGUUCAAGGUGAGAAUAAGAAAUAGCCAACUAGUUAAAAUGUAUGAAAAGAAAACUUUCCCCUGCUGUAUUUGUUGUGUAAC` — result for “RBNS enrichment (R)”: 0.527.
`GGGAAAAAACUAAAAAGGUUUUUUACAUUUUUAAAAGGAAGACAUUCGUGACUGAGACCAUACGUGGCCUAUAAACCUAGCAUUUGGAGAAAGUUUGCUGACUUUUGUAA` — result for “RBNS enrichment (R)”: 0.594.
Under “RBNS enrichment (R)”, `CUUUUUUAUUGUAAAAAGAGAAUCAACUCAACUGUCAGUACUGAGAAGGGAUUUGGGUGUAGGGGCACCUGGCCUCCGGGAGCCAUUGGGCUGUAGACUGGUGUCGGUAU` is recorded as 1.13.
`CUAGAGAGAGCCGCGUUGCCAGUUCCUCUCCCACUCGCUCGUCCUUAUCCACCACGCUAUUAUAGUUUCCGUUGUCCUCCACCAGCAUUUCCCUUACUCUGAAGUUCCGG`: “RBNS enrichment (R)” 0.629.
`AUUUUUGGCGGCCCGUAAGUAGGCUGGCUAGUCCAGGAUACUGUGGAAUAGCCACCUCUUGACCAGUCAUGCCUGUGUGCAUGGACUCAGGGCCACGGCCUUGGCCUGGG` — result for “RBNS enrichment (R)”: 0.392.

Single results of other studies
Starting sequence: PafA, mature enzyme, eGFP fusion (Elizabethkingia meningoseptica, UniProt Q9KJX5); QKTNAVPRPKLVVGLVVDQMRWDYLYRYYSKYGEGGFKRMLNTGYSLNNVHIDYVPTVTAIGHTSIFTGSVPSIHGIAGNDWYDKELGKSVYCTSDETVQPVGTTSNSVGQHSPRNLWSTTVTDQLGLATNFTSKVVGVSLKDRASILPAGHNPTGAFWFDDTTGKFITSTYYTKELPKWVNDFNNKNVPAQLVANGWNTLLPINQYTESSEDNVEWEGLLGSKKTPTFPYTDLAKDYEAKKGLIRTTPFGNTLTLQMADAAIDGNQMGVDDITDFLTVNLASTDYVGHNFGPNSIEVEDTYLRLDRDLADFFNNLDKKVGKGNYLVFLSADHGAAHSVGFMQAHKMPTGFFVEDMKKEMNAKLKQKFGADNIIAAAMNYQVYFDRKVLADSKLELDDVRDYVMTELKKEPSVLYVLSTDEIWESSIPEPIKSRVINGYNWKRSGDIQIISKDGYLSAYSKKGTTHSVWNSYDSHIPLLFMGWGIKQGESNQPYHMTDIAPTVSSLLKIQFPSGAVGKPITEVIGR
For `V102A`, “phosphate dissociation constant” read 603 µM (inorganic phosphate, free oxyanion; microfluidic competitive inhibition; in vitro, cell-free expressed; not given, derived from inhibition constants, unchanged parent 615000 nM; lower = stronger binding).

Repeated from above (series 2):
`TDFPVMFMPKYSIIY [G1T]` gave a fold enrichment of 5.39 fold.
The fold enrichment of `GDFPVMFMPKYYIIY [S12Y]` is reported as 6.1 fold.
